Measurements of several laboratories.
Each numbered part is a random draw from the data of one study; scales do not carry over between parts. Substitutions count along the parent as printed.

Set 1
Target: ABI1, truncated, D143A, DHFR fusion (Arabidopsis thaliana)
Method: DHFR PCA, deep sequencing
Medium: yeast
Setting: methotrexate growth selection, single substitutions
Added: (+)-ABA 2500 µM
Relative to: wild-type fitted maximum
Reading: higher = stronger binding
Parent: PYL1, truncated, DHFR fusion (Arabidopsis thaliana); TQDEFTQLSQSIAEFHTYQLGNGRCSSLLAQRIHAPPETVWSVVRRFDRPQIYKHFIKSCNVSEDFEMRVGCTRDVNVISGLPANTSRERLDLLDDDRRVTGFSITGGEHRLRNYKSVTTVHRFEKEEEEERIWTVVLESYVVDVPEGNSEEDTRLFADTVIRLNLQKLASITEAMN
Substitution	relative binding score
I133V	106%
T160R	93.7%
D75W	95.8%
S27H	96.7%
R45C	91.6%
V78R	9.47%
L20K	97.6%
E14F	76.4%
T160F	94.8%
L91V	70%
L156I	95.8%
F157I	89.6%
A30V	101%
E129T	105%
N85P	87.6%
D144C	86.6%
Q19L	97.5%
T135A	92.3%
R99F	112%
I105A	88.3%
I105H	15.8%

Set 2
Target: OGT, full length, His-tagged (human)
Method: phage display, sequencing
Medium: in vitro
Tested at: 1 µg OGT
Setting: single substitutions, 15-mer displayed peptide, unchanged parent 6.14
Relative to: input library
Reading: higher = stronger binding
Parent: peptide; VAYPNSYMPKYQIST
Substitution	fold enrichment [fold]
P9R	0.44
I13F	0.725
P4S	6.86
Y3T	5.49
K10H	3.49
Y7T	0.544
S14L	10.2
V1K	2.61
T15I	19.4
K10N	0.509
Q12V	0.589
K10F	5.28
S6Y	3.84
P9Q	0.858
Y11W	0.932
Y7R	0.936
K10I	2.32
Y11F	0.896
S14Y	10.9

Set 3
Target: RING finger protein unkempt homolog, zinc fingers 1-6, GST-SBP tag (UNK, Homo sapiens, UniProt Q9C0B0, residues 30-357)
UniProt Q9C0B0, sequence (30-357, looked up): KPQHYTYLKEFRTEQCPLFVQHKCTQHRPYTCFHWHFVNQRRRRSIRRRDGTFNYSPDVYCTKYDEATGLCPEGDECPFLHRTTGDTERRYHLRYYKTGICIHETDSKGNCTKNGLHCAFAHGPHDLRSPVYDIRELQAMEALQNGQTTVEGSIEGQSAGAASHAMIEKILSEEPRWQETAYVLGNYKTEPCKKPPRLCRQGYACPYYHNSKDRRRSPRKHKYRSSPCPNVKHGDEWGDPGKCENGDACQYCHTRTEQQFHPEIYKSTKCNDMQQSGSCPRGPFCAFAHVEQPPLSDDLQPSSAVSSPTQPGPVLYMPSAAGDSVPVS
Method: RNA Bind-n-Seq
Molecule type: RNA
Medium: in vitro
Tested at: not given
Setting: RNA with constant flanks, ends assumed
Relative to: input RNA pool
Reading: higher = stronger binding
Strand	bound/input enrichment [ratio]
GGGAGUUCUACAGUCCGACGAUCUUGCGCCAGAGAACAGAAAACAUAGAUAUAAAAAAAUACUGUGUACAUUAUCUUGAGGAUGCCGGUUCUUUUGAAUACACUCGUAAUACCCUUAAAGAGCUUGAAGCUAAAGCCUAUAAACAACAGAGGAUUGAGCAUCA	0.589
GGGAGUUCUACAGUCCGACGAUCAGCUUUGCUGAGCCAUCAAGGUCUAAUGGAAGCAUGGUUCGGCAUUCUUCAUCUCCAUAUGCCGUAUAUCCUUCGGAUAAGCCUUUCCUUAAUAGUGAUCUACGACGCUCCCCAAGUAAGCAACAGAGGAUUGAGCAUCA	0.372
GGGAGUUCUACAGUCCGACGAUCUUGCCUUUUCAGAGCAUGAGGUCAGGCUCUGUAUCCCUCCUUUUCCUAGCUGAUAUUCUAACCCGAAGCAUUUGUCAAUUCCUUUGCCUCCCAACUGACAACACACGUUCAUUUUCCAACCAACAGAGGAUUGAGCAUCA	0.88
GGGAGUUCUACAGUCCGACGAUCCUACAAGAUGUUCUGCAGUUGUUCAAGUUCUUUUGUGUUUUGUGGACCUAUGGUUCCCGCCUUUCAAAUCCACUUAACUGCACUGUGAAGUCAGAGCUGCAGACUCAAGCUCUUUACAUACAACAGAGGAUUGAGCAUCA	0.12
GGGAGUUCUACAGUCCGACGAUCGAUAAGUGUGUGGAGAAGCCAGGAAGUCGGCUAGACUCCCGCACUGAAAACUGCCUCUCCCGCUGUGUGGAUCGCUUCAUUGACACUACUCUUGCCAUCACCGGUCGGUUUGCCCAGAUCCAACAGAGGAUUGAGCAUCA	0.223
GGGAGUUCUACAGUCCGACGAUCCACCUCAAAGUCUUUGCAAAACCCAAAAUCACAUAUGUAGAGAACCAGACUGCCAUGGAAUCCGAGGAGCAGGUCACUCUUACCUGUGAAGCCUCCGGAGACCCCAUUCCCUCCAUCACCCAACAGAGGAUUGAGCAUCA	0.271
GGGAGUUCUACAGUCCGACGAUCAUGUGGUAUCGUUUACGGUUAUUAAAACCCCAGCCAAAUAUUAUUCCUACAGUAAAGAAAACCGUUCUGCUUGCAGGAUGGGCAUUGUUCUUAUUCCUUGCAUAUAAAGUUUCCAAAACACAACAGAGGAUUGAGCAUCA	0.158
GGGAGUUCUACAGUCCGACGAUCUGAAAAAGCCUUGAAUAUGCAUGCUGCUUUCAUUUUUAUAAACUUUUUAUUUUUUAACUACCGCUUUAUUAGUAAUUCCAAAAUGCUGCAAUGUAGCUGAUUUCCUCACUCAGACAGCUGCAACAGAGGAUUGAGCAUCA	23.1

Set 4
Target: CCNE2, cyclin fold, Cln2 fusion (human)
Method: yeast growth competition, sequencing
Medium: yeast
Setting: strong parent motif
Relative to: not given
Reading: higher = stronger binding
Parent: RBL2 docking peptide (human); STTRRRLFVENDS
Substitution	normalised enrichment score
STTRRRLLVENDS [F8L]	0.705
SRTRRRLFVENDS [T2R]	4.59
DTTRRRLFVENDS [S1D]	3.68
STTRRRLFVENVS [D12V]	3.64
TTTRRRLFVENDS [S1T]	4.09
STTRLRLFVENDS [R5L]	0.179
STLRRRLFVENDS [T3L]	1.95
GTTRRRLFVENDS [S1G]	4.42
STTRRRLFIENDS [V9I]	3.24
STTRRRLFVENDA [S13A]	3.97
STTRRRLFVYNDS [E10Y]	2.21
STTRRRLFRENDS [V9R]	2.67
STTRRRLFVELDS [N11L]	3.3
STTRRRLFVENKS [D12K]	3.81
STTRRRLFTENDS [V9T]	4.52
STTRGRLFVENDS [R5G]	-0.29
STTRRRHFVENDS [L7H]	0.0661
STTRRRLFVENFS [D12F]	2.48
STTRRRLFVENQS [D12Q]	3.29

For quick reference, copied from above (set 1):
Substitution	relative binding score
R45C	91.6%
V78R	9.47%
L20K	97.6%
E14F	76.4%
